Experimental data of several laboratories.
Numbered parts are unrelated; each lists some results of a single study.

Sample 1
Target: Max-binding protein MNT, bHLH-zipper, MAX partner unstated (MNT, Homo sapiens, UniProt Q99583, residues 220-300)
Technique: protein-binding microarray
Molecule type: double-stranded DNA, one strand shown
Sample: in vitro
Concentration: not given
Notes: k-mer, scored over probes, only values ≥0.25
Direction: higher = stronger binding
Construct (chain): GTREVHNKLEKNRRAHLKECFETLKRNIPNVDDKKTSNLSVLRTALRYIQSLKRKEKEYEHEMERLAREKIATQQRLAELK
| Oligonucleotide | E-score |
| --- | --- |
| AACATGCG | 0.427 |
| CTGCCCAC | 0.256 |
| CGTGGAGA | 0.346 |
| CGTGCTGA | 0.38 |
| GACCACGC | 0.422 |

Sample 2
Target: Interferon regulatory factor 7, full length, phosphomimetic (IRF7, Homo sapiens, UniProt Q92985, residues 1-503, S471D/S472D/S475D/S476D/S477D/S483D/S484D/S487D)
Technique: protein-binding microarray
Molecule type: double-stranded DNA, one strand shown
Sample: in vitro
Concentration: 2200 nM top
Notes: 60-bp whole probe
With: salmon DNA 0.4 mg/ml
Relative to: random background probes
Direction: higher = stronger binding
Construct (chain): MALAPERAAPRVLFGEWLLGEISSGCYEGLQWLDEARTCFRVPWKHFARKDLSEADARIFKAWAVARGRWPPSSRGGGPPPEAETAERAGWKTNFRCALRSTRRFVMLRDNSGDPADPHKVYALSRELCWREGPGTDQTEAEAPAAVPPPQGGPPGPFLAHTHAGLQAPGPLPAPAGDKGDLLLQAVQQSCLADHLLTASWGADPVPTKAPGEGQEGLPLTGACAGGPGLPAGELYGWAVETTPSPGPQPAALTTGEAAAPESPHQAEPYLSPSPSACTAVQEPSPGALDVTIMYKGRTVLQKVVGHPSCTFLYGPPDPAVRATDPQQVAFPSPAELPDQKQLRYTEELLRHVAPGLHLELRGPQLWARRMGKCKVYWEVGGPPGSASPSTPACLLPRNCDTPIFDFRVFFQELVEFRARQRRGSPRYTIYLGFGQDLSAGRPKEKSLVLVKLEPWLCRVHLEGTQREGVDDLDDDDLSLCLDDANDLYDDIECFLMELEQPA
| Oligonucleotide | fitted relative affinity [z-score] |
| --- | --- |
| GCCTAGCACTCATCTCTGTCCCTGTTACTGTGCTAGGTCTTGATTCGCTTGACGCTGCTG | 2.55 |
| GCCTAGCACTCAACTTTCTTTCAAATACTGTGCTAGGTCTTGATTCGCTTGACGCTGCTG | 1.11 |
| GCCTAGCACGACGGTTTACTTCTCCTGACGTGCTAGGTCTTGATTCGCTTGACGCTGCTG | 1.92 |
| GCCTAGCACGACGAACTGGTGACTGGAGACGTGCTAGTCTTGATTCGCTTGACGCTGCTG | -0.339 |

Sample 3
Target: Histone acetyltransferase KAT6A, both winged helices, GST fusion (KAT6A, Homo sapiens, UniProt Q92794, residues 1-181)
Technique: protein binding microarray
Molecule type: double-stranded DNA, one strand shown
Sample: in vitro
Concentration: not given
Notes: 8-mer, flanks averaged, mean of 2 arrays, mostly near background
Relative to: not given
Direction: higher = stronger binding
Residues (chain): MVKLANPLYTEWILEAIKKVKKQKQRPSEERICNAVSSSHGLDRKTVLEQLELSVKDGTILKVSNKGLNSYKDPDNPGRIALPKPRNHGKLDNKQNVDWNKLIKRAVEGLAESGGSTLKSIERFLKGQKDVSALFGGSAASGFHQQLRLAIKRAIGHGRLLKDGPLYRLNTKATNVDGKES
| Oligonucleotide | E-score |
| --- | --- |
| GGACCTGA | -0.00491 |
| CACATCGC | 0.102 |
| ATACAACG | 0.0534 |

Further values, each from its own experiment
| Substance | target | assay | system | conditions | scale | measurement | value |
| --- | --- | --- | --- | --- | --- | --- | --- |
| PhoQ, residues 284 288 289 292 302 303 SLCLSL | PhoP, residues 12 14 15 18 19 NHFRA (Escherichia coli, UniProt P23836) | Sort-seq, refers to: YFP reporter | E. coli | PhoQ-PhoP variant library, with: 10 µM Mg2+ | relative to: high Mg2+ state, higher = stronger signaling | fold induction | 5.9 |

A few entries again (sample 1):
| Oligonucleotide | E-score |
| --- | --- |
| CGTGGAGA | 0.346 |
